Results from different studies.
Compare with care: the assays were run in different laboratories. Values joined by “and” are separate records of one study, mostly repeats; a detail may differ. ± gives the spread as reported.
CDK5 with p25: Cyclin-dependent kinase 5, with p25 (CDK5, Homo sapiens, UniProt Q00535)
Chain of UniProt Q00535 (whole entry, looked up): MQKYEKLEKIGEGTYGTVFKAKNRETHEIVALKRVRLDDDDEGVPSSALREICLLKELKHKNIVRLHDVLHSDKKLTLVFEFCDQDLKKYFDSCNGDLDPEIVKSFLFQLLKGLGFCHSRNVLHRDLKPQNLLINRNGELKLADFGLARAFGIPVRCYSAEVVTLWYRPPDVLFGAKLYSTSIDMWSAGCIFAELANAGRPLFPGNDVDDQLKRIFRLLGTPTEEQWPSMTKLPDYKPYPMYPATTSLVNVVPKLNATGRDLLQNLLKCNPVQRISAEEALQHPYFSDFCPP
B1: chain MSEILPYGEDKMGRFGADPEGSDLSFSCRLQDTNSFFAGNQAKRPPKLGQIGRAKRVVIEDDRIDDVLKGMGEKPPSGV
Chain of UniProt Q64663 (whole entry, unmodified, looked up): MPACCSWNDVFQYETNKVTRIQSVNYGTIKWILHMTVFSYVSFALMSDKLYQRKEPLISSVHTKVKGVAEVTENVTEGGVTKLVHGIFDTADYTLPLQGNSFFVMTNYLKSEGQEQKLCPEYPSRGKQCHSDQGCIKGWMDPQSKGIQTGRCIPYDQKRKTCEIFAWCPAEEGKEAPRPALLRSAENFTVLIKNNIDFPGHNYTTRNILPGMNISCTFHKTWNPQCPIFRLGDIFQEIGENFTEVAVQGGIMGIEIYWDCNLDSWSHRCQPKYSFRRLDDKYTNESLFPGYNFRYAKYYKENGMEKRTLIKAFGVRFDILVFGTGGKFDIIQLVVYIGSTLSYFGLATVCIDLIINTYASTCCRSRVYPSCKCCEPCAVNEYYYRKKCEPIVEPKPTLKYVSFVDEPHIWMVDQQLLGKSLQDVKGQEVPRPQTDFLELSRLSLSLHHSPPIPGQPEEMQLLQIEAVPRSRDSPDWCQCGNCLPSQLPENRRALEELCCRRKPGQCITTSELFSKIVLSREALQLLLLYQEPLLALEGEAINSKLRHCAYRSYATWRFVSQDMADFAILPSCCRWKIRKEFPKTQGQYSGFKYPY
Chain of UniProt Q9UQM7 (whole entry, unmodified, looked up): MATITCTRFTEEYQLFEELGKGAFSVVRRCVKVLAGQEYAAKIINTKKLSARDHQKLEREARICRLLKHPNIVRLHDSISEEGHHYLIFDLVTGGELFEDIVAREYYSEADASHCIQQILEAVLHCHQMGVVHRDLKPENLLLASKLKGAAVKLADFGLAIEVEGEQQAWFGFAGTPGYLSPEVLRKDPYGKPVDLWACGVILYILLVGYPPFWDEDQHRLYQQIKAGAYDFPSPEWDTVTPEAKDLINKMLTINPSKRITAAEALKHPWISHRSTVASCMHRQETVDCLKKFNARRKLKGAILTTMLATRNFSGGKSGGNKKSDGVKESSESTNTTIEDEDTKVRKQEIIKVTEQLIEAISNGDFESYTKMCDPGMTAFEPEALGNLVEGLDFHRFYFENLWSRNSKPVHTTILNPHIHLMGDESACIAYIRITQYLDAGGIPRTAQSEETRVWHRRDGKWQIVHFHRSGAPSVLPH
Chain of UniProt Q5ANA3 (whole entry, looked up): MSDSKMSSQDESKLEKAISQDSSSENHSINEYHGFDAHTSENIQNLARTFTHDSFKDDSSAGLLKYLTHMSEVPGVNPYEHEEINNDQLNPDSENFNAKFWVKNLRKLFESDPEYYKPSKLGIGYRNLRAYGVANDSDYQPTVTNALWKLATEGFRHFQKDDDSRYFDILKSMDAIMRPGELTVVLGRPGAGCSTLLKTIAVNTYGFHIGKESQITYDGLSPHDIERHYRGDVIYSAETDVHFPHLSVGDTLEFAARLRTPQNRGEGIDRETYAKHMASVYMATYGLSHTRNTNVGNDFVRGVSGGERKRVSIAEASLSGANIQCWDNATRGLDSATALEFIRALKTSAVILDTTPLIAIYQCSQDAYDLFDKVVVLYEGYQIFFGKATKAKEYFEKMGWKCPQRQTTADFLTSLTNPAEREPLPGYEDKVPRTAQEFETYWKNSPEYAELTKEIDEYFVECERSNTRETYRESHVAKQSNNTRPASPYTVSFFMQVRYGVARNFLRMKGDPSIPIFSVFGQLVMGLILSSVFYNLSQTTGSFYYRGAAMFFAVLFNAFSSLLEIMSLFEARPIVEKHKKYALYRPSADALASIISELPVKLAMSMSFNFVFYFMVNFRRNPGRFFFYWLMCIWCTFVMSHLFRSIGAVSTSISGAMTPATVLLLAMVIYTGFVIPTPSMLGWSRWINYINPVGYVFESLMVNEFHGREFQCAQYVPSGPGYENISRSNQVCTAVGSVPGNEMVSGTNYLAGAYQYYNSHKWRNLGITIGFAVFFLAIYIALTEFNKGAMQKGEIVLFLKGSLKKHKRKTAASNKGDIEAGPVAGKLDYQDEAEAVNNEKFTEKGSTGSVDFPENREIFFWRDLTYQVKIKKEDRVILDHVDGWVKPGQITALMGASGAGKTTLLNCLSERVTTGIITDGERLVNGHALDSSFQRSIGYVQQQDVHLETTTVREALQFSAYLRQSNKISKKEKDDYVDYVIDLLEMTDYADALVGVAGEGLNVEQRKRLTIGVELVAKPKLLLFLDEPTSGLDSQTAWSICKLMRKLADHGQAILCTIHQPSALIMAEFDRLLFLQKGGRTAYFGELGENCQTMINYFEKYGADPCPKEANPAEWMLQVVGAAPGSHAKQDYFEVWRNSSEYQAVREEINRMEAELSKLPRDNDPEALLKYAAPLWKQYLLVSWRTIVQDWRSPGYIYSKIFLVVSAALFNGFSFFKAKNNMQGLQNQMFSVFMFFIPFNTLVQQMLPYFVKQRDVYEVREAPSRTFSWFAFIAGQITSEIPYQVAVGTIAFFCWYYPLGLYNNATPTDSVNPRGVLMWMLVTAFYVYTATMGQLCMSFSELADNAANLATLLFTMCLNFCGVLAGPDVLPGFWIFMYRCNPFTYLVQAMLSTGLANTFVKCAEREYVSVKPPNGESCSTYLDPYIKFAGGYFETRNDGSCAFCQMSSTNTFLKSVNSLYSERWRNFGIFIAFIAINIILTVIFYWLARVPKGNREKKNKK

| Molecule | target or system | test | system | setting | how to read | measurement | value |
| --- | --- | --- | --- | --- | --- | --- | --- |
| human ME2 I58F | – | enzyme activity, NADH absorbance | – | without fumarate, together with: L-malate varied | – | Hill coefficient | 2.24 ± 0.19 |
| B1 | CAMK2A (Homo sapiens, UniProt Q9UQM7, D135N/E236K) | binding, ITC | kinase domain D135N/E236K | – | – | −TΔS | -0.954 kcal/mol and -1.21 kcal/mol |
| 11-deoxycorticosterone | human CYP11B2 | substrate, stopped-flow kinetics | – | 4-state closed model, together with: adrenodoxin 40-fold excess | – | rate constant k2 | 4.68 min⁻¹ |
| human ME2 K74H | – | enzyme activity, activator, NADH absorbance | recombinant enzyme | range over 0 to 5 mM, pH 7.4 | relative to: wild type | activation fold | 1.7 |
| POTE ankyrin domain J (human) | CYB5R4 knockout human cells | PP6 interaction, 3xFLAG-PP6C IP-MS | – | concentration not given | relative to: CYB5R4 KO over parental | log2 fold change | -0.59 |
| KEAFWDRCLSVINLMSSKMLNINA | CDK5 with p25 | phosphotransferase activity, radiometric | peptide | concentration not given, 10% DMSO, together with: histone substrate | relative to: p5-WT peptide | activity change | 79% |
| human NudC | CYB5R4 knockout human cells | PP6 interaction, 3xFLAG-PP6C IP-MS | – | concentration not given | relative to: CYB5R4 KO over parental | log2 fold change | 0.24 |
| KEAFWDRCASVINLMSSKMLQINA | CDK5 with p25 | phosphotransferase activity, radiometric | peptide | concentration not given, 10% DMSO, together with: histone substrate | relative to: p5-WT peptide | activity change | 42% |
| Malic enzyme 2 S121Q (human) | – | enzyme activity, NADH absorbance | – | with fumarate 3 mM, together with: L-malate varied | – | Hill coefficient | 1.02 ± 0.03 |
| KEAFWDRCLTVINLMSSKMLQINA | CDK5 with p25 | phosphotransferase activity, radiometric | peptide | concentration not given, 10% DMSO, together with: histone substrate | relative to: p5-WT peptide | activity change | 56% |
| BzATP | P2X purinoceptor 7 (P2rx7, Rattus norvegicus, UniProt Q64663, Q143A) | ion current, agonist, two-electrode voltage clamp | Xenopus oocytes | 100 µM | – | normalized current | 1 |
| milbemycin oxime | CDR1 (Candida albicans, UniProt Q5ANA3) | binding, microscale thermophoresis | – | 1.25 µM | – | fraction bound | 91.3% |
| human ME2 T76N | – | enzyme activity, NADH absorbance | – | without fumarate, together with: L-malate varied | – | Hill coefficient | 1.67 ± 0.08 |
| KEAFWDRCLSVIELMSSKMLQINA | CDK5 with p25 | phosphotransferase activity, radiometric | peptide | concentration not given, 10% DMSO, together with: histone substrate | relative to: p5-WT peptide | activity change | 62% |

Excerpt of the above:
| Molecule | target or system | test | system | setting | how to read | measurement | value |
| --- | --- | --- | --- | --- | --- | --- | --- |
| KEAFWDRCLSVIELMSSKMLQINA | CDK5 with p25 | phosphotransferase activity, radiometric | peptide | concentration not given, 10% DMSO, together with: histone substrate | relative to: p5-WT peptide | activity change | 62% |
